# Measurements from different studies.
# Every numbered part comes from another study and shows a few of its results, in no order.

# Series 1
# Target: TAR DNA-binding protein 43, full length, His tag (TARDBP, Homo sapiens, UniProt Q13148, residues 1-414)
# Method: RNA Bind-n-Seq
# Molecule type: RNA
# Sample: in vitro
# Concentration: 20 nM
# Setting: 6-mer, flanks averaged, single round
# With: 150 mM KCl
# Reference: input library
# Direction: higher = stronger binding
Strand,6-mer enrichment (R)
AGCGCC,0.806
GAGCUC,0.819
UGUCCU,0.63
UAAAUA,0.674
GCUUUA,0.632
CCUUCC,0.585
GGUGAC,1.42
UCCAUA,0.571
UAGCUG,0.798
CGUCCU,0.616
CGUUGA,0.703
AAAAUG,0.684
GCCCUC,0.647
UAUACC,0.582
CGGGAG,4.6
GCGUCU,0.809
UGCCAG,0.912
AGCUAU,0.614
CUGAGU,0.809
AGACCG,0.871

# Series 2
# Target: Sal-like protein 4, full length isoform A (SALL4, Homo sapiens, UniProt Q9UJQ4, residues 1-1053)
# UniProt Q9UJQ4, sequence (whole entry, looked up): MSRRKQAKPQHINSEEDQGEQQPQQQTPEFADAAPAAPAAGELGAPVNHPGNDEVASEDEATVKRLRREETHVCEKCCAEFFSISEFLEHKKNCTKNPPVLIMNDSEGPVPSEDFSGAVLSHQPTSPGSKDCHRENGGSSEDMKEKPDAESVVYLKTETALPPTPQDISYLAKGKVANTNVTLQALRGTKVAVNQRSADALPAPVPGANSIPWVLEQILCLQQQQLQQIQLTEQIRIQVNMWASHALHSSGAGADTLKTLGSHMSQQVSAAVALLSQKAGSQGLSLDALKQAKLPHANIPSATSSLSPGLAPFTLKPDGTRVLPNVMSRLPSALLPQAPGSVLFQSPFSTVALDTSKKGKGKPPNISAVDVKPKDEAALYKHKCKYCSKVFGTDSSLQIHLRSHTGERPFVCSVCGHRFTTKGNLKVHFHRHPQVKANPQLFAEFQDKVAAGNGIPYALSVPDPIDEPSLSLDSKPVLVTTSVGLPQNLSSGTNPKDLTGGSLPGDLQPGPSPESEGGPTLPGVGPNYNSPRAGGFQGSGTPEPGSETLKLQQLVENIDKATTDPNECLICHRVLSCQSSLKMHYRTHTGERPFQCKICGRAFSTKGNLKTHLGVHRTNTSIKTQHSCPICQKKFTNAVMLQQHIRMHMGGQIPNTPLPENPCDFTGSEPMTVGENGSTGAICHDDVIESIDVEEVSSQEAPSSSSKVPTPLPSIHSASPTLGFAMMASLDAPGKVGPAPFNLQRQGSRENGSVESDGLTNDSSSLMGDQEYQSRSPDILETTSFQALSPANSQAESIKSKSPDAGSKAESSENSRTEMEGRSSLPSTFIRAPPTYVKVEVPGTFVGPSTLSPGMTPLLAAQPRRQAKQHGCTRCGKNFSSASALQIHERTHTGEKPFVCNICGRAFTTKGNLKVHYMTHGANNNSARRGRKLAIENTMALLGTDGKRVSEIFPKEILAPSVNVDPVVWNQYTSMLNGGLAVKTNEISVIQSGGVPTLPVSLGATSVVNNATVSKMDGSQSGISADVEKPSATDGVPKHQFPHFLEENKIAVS
# Method: universal PBM
# Molecule type: double-stranded DNA, one strand shown
# Sample: in vitro
# Concentration: 600 nM
# Setting: 8-mer, flanks averaged, mean of replicates
# Direction: higher = stronger binding
Strand,E-score
CCGAACCG,-0.413
CATTCGGA,0.013
AACCTACC,-0.135
ACCTGTAA,0.129
AAGCGTCT,-0.125
CGTATAAG,0.153
ATGCCCAT,-0.084
TAGATTCA,0.116
GTTCACGA,-0.0943
GTCCAAAA,0.145
ACGGTTCC,-0.228
ACCATACA,0.0927
GGTTAAGA,0.0987
CCTGGCTA,-0.2
GCTCATTA,0.108
CCTTTGGA,-0.205
GCATACCC,-0.149
CCAGTAAA,0.171
CTTGTAGC,0.0403
CCTTAACG,-0.125

# Series 3
# Target: RNA binding protein fox-1 homolog 2, RRM domain, GST-SBP tag (RBFOX2, Homo sapiens, UniProt O43251-10, residues 100-194)
# Method: RNA Bind-n-Seq
# Molecule type: RNA
# Sample: in vitro
# Concentration: 365 nM
# Setting: natural RNA segment, single round, ends assumed
# Reference: no-protein control
# Direction: higher = stronger binding
# Target sequence (chain): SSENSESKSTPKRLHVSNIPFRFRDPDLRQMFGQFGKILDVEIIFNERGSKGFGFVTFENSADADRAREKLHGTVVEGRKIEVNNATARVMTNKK
Strand,RBNS enrichment (R)
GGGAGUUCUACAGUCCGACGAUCCUCCGAGGACCUCAGAACUGGUGCAGCUUCUCUCUCCCUCCCUCCCACAGACUGAACCUUUCGCCAGAAGCUGUCCUUAUAACGCCUUAUACGCAUACACAGCCAGGAAAUGGAAUUCUCGGGUGCCAA,0.519
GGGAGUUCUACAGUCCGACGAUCAGGGGUUGUAUCUUCCUUCUUACCUGUUCAUCAACCAGCCCUCUCAUUGCUGCUGCAAGUCUGGCUCUUUGCCUCUGCUGUGCCAGGCCUCCAUGGUGUCUGCAUAGAGCUGGAAUUCUCGGGUGCCAA,0.358
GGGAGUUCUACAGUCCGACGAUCACUUUGUGAACUGACUUGCUGUAUUUGCACUUUGAGCUCUUGAAAUAAAUGUGAUUUUUGUGUGAUUAUCUGGUUUCCAGUUUUAAACAUUAACUGUCACCUUUUAUUCUUGGAAUUCUCGGGUGCCAA,0.352
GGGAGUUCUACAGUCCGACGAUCGGGUGGUGGAGGCGGUGCCGGGACUUGGCUGAGUGCAGUUUGAGCUCUAGGCUUGUCUCCAUGGGAACAGGAGGGGUGCCUUGUCAGCAAGCUCAUCCGCACAGAAGAGGUGGAAUUCUCGGGUGCCAA,0.67
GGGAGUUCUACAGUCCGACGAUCCUUUGUUUAAUAAGAACCUCAUUUAAACUUGACAGCUAUGGUAUUUUUUUAAUGAUAACUUCUUUUCUGUUUAUUGUAAAACUAAGUUAAAAAUAAAAGGUUAAUGAGAAUGGAAUUCUCGGGUGCCAA,0.521
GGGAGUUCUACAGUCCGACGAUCCAGUUAAUGGCACUGCUCACUUCCUGCCUCUGCUGCCACCAUCACUGUGUGAAGCUUUCAAGAGCUUGGUACUUCCCAGGGCUACCGGCAGUCCUCUGUAGUCCAGAGAGUGGAAUUCUCGGGUGCCAA,0.23
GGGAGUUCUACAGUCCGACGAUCACCUGUGUGAUUCAGUAGGGUUUGAGACUUACGUGUGAUACUGACAGGUAAGCAACAGUGCUAGCAUUCUAGAUUCCUGCCUUUUUUUAAAAAGAAAUUAUUCUCAUUGCUGGAAUUCUCGGGUGCCAA,0.377
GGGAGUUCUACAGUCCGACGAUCGGGGGCUGGAGCCAUGCCUUGGUAGUGACAGACGCAGGUAAAGGUGACAUCCAUAAACAGAGGCAGGCCUAGGCUCUGGAAAGAUCCUCAGUCCUUUCUUACAACAACUUUGGAAUUCUCGGGUGCCAA,0.413

# Series 4
# Target: Histone acetyltransferase KAT6A, winged helix 2, GST fusion (KAT6A, Homo sapiens, UniProt Q92794, residues 85-181)
# Method: protein binding microarray
# Molecule type: double-stranded DNA, one strand shown
# Sample: in vitro
# Concentration: not given
# Setting: 8-mer, flanks averaged, mean of 2 arrays, mostly near background
# Reference: not given
# Direction: higher = stronger binding
# Construct (chain): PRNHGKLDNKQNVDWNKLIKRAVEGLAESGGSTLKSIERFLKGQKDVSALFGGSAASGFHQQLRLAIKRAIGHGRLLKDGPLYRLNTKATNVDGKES
Strand,E-score
AGGCCACT,-0.061
CCAATATC,-0.00257
ACCTAACT,0.0744
CAACTCTG,0.0453
ACGCACAA,0.0911
AAGACAAA,0.0439
AACGACGA,0.0377
CATAGCAC,-0.113
AGGTCTAG,-0.108
CGGCGTAA,-0.0424
GCAACTCC,0.0568
ATCGTCGG,-0.0564
AACTAGAG,0.0602
CAATAACA,-0.213
ATACTTAG,-0.054
CCCTTGCC,0.0264
AACCATGT,-0.059
ACAGACGC,0.0144
AATAGGAA,-0.0508
TTGACCAA,-0.0372
AGATCCTG,-0.0204
TAAACCGA,0.126
CAATAGGG,-0.014
GGGGAACA,0.0235
AGACCTGA,-0.0339

# For quick reference, copied from above (series 3):
Strand,RBNS enrichment (R)
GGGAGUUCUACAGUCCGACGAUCCUCCGAGGACCUCAGAACUGGUGCAGCUUCUCUCUCCCUCCCUCCCACAGACUGAACCUUUCGCCAGAAGCUGUCCUUAUAACGCCUUAUACGCAUACACAGCCAGGAAAUGGAAUUCUCGGGUGCCAA,0.519
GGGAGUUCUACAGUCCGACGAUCAGGGGUUGUAUCUUCCUUCUUACCUGUUCAUCAACCAGCCCUCUCAUUGCUGCUGCAAGUCUGGCUCUUUGCCUCUGCUGUGCCAGGCCUCCAUGGUGUCUGCAUAGAGCUGGAAUUCUCGGGUGCCAA,0.358
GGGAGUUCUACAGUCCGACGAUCACUUUGUGAACUGACUUGCUGUAUUUGCACUUUGAGCUCUUGAAAUAAAUGUGAUUUUUGUGUGAUUAUCUGGUUUCCAGUUUUAAACAUUAACUGUCACCUUUUAUUCUUGGAAUUCUCGGGUGCCAA,0.352
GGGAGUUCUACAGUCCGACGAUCGGGUGGUGGAGGCGGUGCCGGGACUUGGCUGAGUGCAGUUUGAGCUCUAGGCUUGUCUCCAUGGGAACAGGAGGGGUGCCUUGUCAGCAAGCUCAUCCGCACAGAAGAGGUGGAAUUCUCGGGUGCCAA,0.67
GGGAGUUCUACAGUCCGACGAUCCUUUGUUUAAUAAGAACCUCAUUUAAACUUGACAGCUAUGGUAUUUUUUUAAUGAUAACUUCUUUUCUGUUUAUUGUAAAACUAAGUUAAAAAUAAAAGGUUAAUGAGAAUGGAAUUCUCGGGUGCCAA,0.521
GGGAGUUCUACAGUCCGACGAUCCAGUUAAUGGCACUGCUCACUUCCUGCCUCUGCUGCCACCAUCACUGUGUGAAGCUUUCAAGAGCUUGGUACUUCCCAGGGCUACCGGCAGUCCUCUGUAGUCCAGAGAGUGGAAUUCUCGGGUGCCAA,0.23
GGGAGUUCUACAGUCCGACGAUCACCUGUGUGAUUCAGUAGGGUUUGAGACUUACGUGUGAUACUGACAGGUAAGCAACAGUGCUAGCAUUCUAGAUUCCUGCCUUUUUUUAAAAAGAAAUUAUUCUCAUUGCUGGAAUUCUCGGGUGCCAA,0.377
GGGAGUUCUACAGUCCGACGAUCGGGGGCUGGAGCCAUGCCUUGGUAGUGACAGACGCAGGUAAAGGUGACAUCCAUAAACAGAGGCAGGCCUAGGCUCUGGAAAGAUCCUCAGUCCUUUCUUACAACAACUUUGGAAUUCUCGGGUGCCAA,0.413
